# Measured values pooled from the literature.
# Compare with care: the assays were run in different laboratories. “And” joins repeats or separate records; there may be more than shown. ± gives the spread as reported.
# cofactor-independent phosphoglycerate mutase W431C: cofactor-independent phosphoglycerate mutase (Metamycoplasma orale, UniProt A0A448ZXM1, W431C)
# Cnr1: Cannabinoid receptor 1 (Cnr1, Mus musculus, UniProt P47746)
# UniProt P47746, sequence (whole entry, looked up): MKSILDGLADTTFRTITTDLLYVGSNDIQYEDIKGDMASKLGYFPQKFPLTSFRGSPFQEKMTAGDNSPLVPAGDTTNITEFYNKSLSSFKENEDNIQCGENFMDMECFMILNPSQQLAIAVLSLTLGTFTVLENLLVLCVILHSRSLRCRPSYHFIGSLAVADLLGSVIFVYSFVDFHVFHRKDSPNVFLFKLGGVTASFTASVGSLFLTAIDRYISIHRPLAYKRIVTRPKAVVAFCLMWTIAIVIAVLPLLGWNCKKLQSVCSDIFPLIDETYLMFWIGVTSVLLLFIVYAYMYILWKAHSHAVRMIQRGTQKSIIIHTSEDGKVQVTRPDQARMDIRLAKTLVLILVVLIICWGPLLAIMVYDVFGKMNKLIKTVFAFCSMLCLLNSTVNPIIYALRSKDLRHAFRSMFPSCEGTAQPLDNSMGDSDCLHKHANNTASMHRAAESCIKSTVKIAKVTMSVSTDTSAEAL
# UniProt P0A725, sequence (whole entry, looked up): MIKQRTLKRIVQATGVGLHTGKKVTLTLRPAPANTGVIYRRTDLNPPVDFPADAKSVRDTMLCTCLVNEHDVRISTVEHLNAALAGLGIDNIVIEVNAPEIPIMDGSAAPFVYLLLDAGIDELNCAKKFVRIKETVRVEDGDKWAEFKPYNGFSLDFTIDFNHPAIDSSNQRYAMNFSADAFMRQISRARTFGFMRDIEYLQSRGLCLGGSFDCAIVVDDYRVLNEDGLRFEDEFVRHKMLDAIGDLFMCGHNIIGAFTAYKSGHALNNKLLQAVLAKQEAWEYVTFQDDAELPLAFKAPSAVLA
# UniProt P14780, sequence (whole entry, looked up): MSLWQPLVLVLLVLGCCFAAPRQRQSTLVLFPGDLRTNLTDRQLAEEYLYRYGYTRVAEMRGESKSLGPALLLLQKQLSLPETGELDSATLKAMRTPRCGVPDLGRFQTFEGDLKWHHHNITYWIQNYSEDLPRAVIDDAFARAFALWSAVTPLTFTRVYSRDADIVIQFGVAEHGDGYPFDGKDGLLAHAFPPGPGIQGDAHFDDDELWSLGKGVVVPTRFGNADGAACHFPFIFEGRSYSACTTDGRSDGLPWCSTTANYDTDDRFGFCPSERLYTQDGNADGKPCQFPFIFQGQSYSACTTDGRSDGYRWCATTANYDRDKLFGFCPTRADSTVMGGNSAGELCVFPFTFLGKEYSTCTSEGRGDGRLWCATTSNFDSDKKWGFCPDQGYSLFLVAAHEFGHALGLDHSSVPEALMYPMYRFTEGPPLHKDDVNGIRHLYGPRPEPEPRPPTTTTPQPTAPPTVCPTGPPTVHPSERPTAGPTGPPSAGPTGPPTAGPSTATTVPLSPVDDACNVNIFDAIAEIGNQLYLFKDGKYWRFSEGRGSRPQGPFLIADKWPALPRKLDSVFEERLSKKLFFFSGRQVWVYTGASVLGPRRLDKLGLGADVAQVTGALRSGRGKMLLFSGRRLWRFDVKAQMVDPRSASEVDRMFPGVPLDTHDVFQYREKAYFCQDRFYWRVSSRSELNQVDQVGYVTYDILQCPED
# UniProt Q09472, sequence (whole entry, looked up): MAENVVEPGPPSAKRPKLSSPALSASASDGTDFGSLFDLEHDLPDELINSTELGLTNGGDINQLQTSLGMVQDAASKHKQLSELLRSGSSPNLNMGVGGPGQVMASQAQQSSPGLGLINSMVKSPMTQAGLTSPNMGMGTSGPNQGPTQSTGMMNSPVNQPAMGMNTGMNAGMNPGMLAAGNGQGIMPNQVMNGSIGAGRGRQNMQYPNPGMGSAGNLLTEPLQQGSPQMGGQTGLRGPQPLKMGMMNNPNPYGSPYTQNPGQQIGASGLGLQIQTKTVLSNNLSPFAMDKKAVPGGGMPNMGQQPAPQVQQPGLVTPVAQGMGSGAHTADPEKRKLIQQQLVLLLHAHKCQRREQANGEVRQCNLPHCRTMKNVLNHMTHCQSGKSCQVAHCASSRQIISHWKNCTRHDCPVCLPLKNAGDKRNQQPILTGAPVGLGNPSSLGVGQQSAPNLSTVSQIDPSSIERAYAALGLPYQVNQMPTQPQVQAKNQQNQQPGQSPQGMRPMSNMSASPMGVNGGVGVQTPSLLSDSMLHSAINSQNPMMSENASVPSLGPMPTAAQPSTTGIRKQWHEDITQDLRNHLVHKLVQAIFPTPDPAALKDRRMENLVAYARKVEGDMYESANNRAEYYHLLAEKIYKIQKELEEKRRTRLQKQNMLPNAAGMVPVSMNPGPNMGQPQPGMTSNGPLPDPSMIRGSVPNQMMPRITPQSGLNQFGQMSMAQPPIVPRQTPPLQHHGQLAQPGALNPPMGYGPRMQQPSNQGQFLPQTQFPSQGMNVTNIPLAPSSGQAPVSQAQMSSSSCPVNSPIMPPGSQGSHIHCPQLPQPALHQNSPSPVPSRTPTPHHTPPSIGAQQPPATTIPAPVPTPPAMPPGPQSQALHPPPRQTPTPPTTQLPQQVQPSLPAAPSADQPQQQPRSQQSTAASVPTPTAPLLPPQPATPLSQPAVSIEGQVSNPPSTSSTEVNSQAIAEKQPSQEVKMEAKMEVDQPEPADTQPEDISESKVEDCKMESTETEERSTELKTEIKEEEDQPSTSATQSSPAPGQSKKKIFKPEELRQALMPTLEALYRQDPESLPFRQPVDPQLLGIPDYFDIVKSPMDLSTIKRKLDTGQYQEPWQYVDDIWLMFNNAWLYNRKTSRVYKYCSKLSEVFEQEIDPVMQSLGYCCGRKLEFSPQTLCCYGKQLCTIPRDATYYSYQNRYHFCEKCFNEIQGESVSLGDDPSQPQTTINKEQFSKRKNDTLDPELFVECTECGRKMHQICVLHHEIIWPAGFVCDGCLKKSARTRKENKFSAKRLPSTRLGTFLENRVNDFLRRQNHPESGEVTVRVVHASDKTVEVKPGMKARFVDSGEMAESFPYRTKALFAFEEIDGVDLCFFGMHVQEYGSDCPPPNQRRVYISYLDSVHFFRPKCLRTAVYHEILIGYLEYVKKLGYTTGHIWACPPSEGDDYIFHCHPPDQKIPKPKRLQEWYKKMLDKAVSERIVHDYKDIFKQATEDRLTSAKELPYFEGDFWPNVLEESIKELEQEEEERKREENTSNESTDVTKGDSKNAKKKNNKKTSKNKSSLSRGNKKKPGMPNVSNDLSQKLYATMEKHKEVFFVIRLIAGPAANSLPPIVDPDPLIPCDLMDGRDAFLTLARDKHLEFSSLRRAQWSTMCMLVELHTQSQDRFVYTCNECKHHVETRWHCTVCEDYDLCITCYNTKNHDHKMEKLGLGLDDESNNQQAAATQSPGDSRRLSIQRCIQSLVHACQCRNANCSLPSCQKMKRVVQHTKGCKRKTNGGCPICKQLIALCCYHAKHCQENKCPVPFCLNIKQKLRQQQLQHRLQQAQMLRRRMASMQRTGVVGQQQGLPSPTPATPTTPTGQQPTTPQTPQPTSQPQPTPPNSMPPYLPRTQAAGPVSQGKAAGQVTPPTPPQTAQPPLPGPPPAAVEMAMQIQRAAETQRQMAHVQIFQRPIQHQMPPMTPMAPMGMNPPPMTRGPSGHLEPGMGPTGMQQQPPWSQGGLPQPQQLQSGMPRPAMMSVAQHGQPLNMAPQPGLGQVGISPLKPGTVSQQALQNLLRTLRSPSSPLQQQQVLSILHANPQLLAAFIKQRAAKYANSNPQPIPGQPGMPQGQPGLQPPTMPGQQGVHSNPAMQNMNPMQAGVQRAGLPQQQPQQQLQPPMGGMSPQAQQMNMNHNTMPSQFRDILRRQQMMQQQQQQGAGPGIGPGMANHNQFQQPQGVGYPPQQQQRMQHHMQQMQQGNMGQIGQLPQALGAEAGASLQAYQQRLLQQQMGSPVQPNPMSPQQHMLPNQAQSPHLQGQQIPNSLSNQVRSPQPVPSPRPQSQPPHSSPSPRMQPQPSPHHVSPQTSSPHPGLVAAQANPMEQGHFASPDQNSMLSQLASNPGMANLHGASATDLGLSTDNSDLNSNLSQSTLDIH
# UniProt P05649, sequence (whole entry, looked up): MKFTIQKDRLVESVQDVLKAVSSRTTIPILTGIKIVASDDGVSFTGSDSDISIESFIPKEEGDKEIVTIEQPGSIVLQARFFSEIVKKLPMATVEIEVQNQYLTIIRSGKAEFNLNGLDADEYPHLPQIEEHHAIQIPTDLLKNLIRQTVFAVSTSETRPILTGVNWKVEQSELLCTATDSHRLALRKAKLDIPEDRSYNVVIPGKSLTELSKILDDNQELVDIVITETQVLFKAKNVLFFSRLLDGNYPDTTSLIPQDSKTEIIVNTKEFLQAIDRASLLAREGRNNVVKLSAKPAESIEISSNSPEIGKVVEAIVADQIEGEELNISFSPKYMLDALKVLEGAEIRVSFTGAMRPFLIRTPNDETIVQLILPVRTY
# UniProt Q15761, sequence (whole entry, looked up): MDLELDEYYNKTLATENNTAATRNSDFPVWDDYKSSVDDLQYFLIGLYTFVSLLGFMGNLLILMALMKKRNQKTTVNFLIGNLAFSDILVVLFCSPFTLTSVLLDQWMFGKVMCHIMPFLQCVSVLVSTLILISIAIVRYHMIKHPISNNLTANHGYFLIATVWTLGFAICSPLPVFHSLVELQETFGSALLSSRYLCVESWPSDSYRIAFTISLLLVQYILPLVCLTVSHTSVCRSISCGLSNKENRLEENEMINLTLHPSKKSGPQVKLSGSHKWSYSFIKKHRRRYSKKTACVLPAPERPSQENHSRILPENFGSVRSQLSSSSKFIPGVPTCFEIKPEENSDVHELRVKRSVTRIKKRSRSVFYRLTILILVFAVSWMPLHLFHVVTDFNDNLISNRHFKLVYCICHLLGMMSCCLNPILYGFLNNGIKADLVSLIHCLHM
SMILES,target,test,system,setting,measurement,result
O=P(O)(O)Oc1ccc(Oc2ccc(S(=O)(=O)CC3CS3)cc2)cc1 (racemic),"MMP9 (Homo sapiens, UniProt P14780)","enzyme activity, inhibitor",,,Ki,35800 nM
CC(C)C[C@H](NC(=O)[C@H](Cc1ccccc1)NC(=O)[C@H](CC(C)C)NC(=O)[C@H](CO)NC(=O)[C@H](CC(C)C)NC(=O)[C@H](CCC(N)=O)NC(=O)[C@H](CC(=O)O)NC(=O)[C@H](CC(=O)O)NC(=O)CCCCCNC(=O)c1ccc2c(c1)C(=O)OC21c2ccc(O)cc2Oc2cc(O)ccc21)C(=O)N[C@@H](CC(=O)O)C(=O)N[C@@H](CCC(=O)O)C(N)=O,"Beta sliding clamp (dnaN, Bacillus subtilis, UniProt P05649)",,,pH 7.5,Kd,7200 ± 2200 nM
NCCCC[C@H](NC(=O)[C@H](CC(N)=O)NC(=O)[C@H](CCCCNC(=O)[C@H](Cc1ccc(B(O)O)cc1)NC(=O)[C@H](Cc1ccc(O)cc1)NC(=O)[C@@H](N)Cc1ccc(B(O)O)cc1)NC(=O)[C@H](Cc1ccc(B(O)O)cc1)NC(=O)[C@H](Cc1ccc(O)cc1)NC(=O)[C@@H](N)Cc1ccc(B(O)O)cc1)C(=O)N[C@@H](CO)C(=O)N[C@@H](Cc1ccc(O)cc1)C(N)=O,HIV-1 RRE IIB RNA,"binding, dot blot",,"4 h, pH 7.0, room temperature",Kd,8700 ± 2200 nM
C[C@@](O)(C(F)F)[C@H](NC(=O)c1ccc(C#CC#CC2CC2)cc1)C(=O)NO,"UDP-3-O-acyl-N-acetylglucosamine deacetylase (Escherichia coli K-12, UniProt P0A725)","enzyme activity, slow-binding competitive inhibitor, time-dependent inhibition",,,Ki,~0.0089 nM and 0.0089 nM
CCS(=O)(=O)Nc1cc(-c2cn(C)c3c(=O)[nH]ccc23)cc2c1ccn2C(C)(c1ccccn1)c1ccccn1,"EP300 (Homo sapiens, UniProt Q09472)",cell-free assay,,,IC50,28 nM
COc1ccc(C[C@H]2C(=O)N[C@@H](CC(N)=O)C(=O)N[C@@H](CC(=O)O)C(=O)N[C@@H](CO)C(=O)NCC(=O)N[C@@H](Cc3c[nH]c4ccccc34)C(=O)N(C)[C@@H](Cc3ccc(O)cc3)C(=O)N[C@@H](CC(N)=O)C(=O)N[C@@H]([C@@H](C)O)C(=O)N(C)[C@@H](Cc3ccccc3)C(=O)N[C@H](C(N)=O)CSCC(=O)N[C@@H](Cc3ccc(O)cc3)C(=O)N2C)cc1,cofactor-independent phosphoglycerate mutase W431C,biochemical,Mycoplasma orale,,AC50,45700 nM
O=C(Cc1c(-c2ccccc2)n[nH]c1-c1ccccc1)NO,"MEP1B (Homo sapiens, UniProt Q16820)","enzyme activity, inhibitor",,,Ki,116 nM
CN1C(=O)[C@H](CCC(=O)O)NC(=O)[C@H](Cc2ccc(O)cc2)NC(=O)[C@H](CCCNC(=N)N)NC(=O)[C@@H](Cc2ccc(O)cc2)NC(=O)CSC[C@@H](C(N)=O)NC(=O)[C@H](CCCCN)NC(=O)[C@@H]2CCCN2C(=O)[C@H](CS)NC(=O)[C@H](CCC(=O)O)NC(=O)[C@H](Cc2ccc(O)cc2)N(C)C(=O)[C@H](CCCCN)NC(=O)[C@H](Cc2ccc(O)cc2)NC(=O)[C@@H]1Cc1ccc(O)cc1,"ipgm-1 (Caenorhabditis elegans, UniProt G5EFZ1)",enzyme activity,,,AC50,3980 nM
CC(=O)N[C@@H](CCCNC(=N)N)C(=O)N[C@H](Cc1ccc(O)cc1)C(=O)N[C@@H](CCCNC(=N)NC(=O)NCCCCN)C(=O)N[C@@H](CC(C)C)C(=O)N[C@@H](CCCNC(=N)N)C(=O)N[C@@H](Cc1ccc(O)cc1)C(N)=O,"NPY5R (Homo sapiens, UniProt Q15761)","ligand displacement, radioligand",,,Ki,> 5000 nM
CC(C)[C@@H]1NC(=O)[C@H](CCC(N)=O)NC(=O)[C@@H](Cc2ccc(O)cc2)NC(=O)CSC[C@@H](C(N)=O)NC(=O)[C@H](CC(=O)O)NC(=O)[C@H](CCC(=O)O)NC(=O)[C@H](Cc2c[nH]c3ccccc23)NC(=O)[C@@H]2CCCN2C(=O)[C@H](CO)NC(=O)[C@H](C)NC(=O)[C@H](Cc2c[nH]c3ccccc23)NC(=O)[C@H](Cc2c[nH]c3ccccc23)NC(=O)[C@H](C(C)C)NC(=O)[C@H]([C@@H](C)O)NC1=O,"2,3-bisphosphoglycerate-independent phosphoglycerate mutase (gpmI, Staphylococcus aureus, UniProt Q6GIL5)",enzyme activity,,,AC50,39.8 nM
COC(=O)c1ccc(Cn2cc(C=C3C(=NO)C4CCN3CC4)c3ccccc32)cc1,Cnr1,"ligand displacement, radioligand",,cell membranes,Ki,336 nM
CC(C)[C@@H]1NC(=O)[C@H](CCC(N)=O)NC(=O)[C@@H](Cc2ccc(O)cc2)NC(=O)CSC[C@@H](C(N)=O)NC(=O)[C@H](CC(=O)O)NC(=O)[C@H](CCC(=O)O)NC(=O)[C@H](Cc2c[nH]c3ccccc23)NC(=O)[C@@H]2CCCN2C(=O)[C@H](CO)N(C)C(=O)[C@H](C)NC(=O)[C@H](Cc2c[nH]c3ccccc23)NC(=O)[C@H](Cc2c[nH]c3ccccc23)NC(=O)[C@H](C(C)C)NC(=O)[C@H]([C@@H](C)O)NC1=O,cofactor-independent phosphoglycerate mutase W431C,biochemical,Mycoplasma orale,,AC50,2.63 nM
O=C1C(=Cc2cn(Cc3ccc(F)cc3)c3ccccc23)N2CCC1CC2,Cnr1,"cAMP level, agonist",Neuro2A,added: 10 µM forskolin,IC50,243 ± 57.5 nM

# A few entries again:
SMILES,target,test,system,setting,measurement,result
NCCCC[C@H](NC(=O)[C@H](CC(N)=O)NC(=O)[C@H](CCCCNC(=O)[C@H](Cc1ccc(B(O)O)cc1)NC(=O)[C@H](Cc1ccc(O)cc1)NC(=O)[C@@H](N)Cc1ccc(B(O)O)cc1)NC(=O)[C@H](Cc1ccc(B(O)O)cc1)NC(=O)[C@H](Cc1ccc(O)cc1)NC(=O)[C@@H](N)Cc1ccc(B(O)O)cc1)C(=O)N[C@@H](CO)C(=O)N[C@@H](Cc1ccc(O)cc1)C(N)=O,HIV-1 RRE IIB RNA,"binding, dot blot",,"4 h, pH 7.0, room temperature",Kd,8700 ± 2200 nM
